Experimental data from different studies.
Protocols differ between the studies behind these lines. Several values in a cell are separate wells, animals, samples, runs or records. ± gives the spread as reported.
UniProt Q63HM1, sequence (whole entry, looked up): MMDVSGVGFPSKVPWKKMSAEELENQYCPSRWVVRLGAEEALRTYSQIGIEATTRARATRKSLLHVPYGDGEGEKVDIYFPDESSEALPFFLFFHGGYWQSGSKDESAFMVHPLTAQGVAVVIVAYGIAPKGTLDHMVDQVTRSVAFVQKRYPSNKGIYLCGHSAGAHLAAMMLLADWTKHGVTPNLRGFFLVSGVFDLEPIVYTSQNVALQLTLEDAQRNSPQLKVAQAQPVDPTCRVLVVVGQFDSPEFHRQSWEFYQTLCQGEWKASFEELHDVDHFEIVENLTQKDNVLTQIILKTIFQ
UniProt Q9Y5L0, sequence (whole entry, looked up): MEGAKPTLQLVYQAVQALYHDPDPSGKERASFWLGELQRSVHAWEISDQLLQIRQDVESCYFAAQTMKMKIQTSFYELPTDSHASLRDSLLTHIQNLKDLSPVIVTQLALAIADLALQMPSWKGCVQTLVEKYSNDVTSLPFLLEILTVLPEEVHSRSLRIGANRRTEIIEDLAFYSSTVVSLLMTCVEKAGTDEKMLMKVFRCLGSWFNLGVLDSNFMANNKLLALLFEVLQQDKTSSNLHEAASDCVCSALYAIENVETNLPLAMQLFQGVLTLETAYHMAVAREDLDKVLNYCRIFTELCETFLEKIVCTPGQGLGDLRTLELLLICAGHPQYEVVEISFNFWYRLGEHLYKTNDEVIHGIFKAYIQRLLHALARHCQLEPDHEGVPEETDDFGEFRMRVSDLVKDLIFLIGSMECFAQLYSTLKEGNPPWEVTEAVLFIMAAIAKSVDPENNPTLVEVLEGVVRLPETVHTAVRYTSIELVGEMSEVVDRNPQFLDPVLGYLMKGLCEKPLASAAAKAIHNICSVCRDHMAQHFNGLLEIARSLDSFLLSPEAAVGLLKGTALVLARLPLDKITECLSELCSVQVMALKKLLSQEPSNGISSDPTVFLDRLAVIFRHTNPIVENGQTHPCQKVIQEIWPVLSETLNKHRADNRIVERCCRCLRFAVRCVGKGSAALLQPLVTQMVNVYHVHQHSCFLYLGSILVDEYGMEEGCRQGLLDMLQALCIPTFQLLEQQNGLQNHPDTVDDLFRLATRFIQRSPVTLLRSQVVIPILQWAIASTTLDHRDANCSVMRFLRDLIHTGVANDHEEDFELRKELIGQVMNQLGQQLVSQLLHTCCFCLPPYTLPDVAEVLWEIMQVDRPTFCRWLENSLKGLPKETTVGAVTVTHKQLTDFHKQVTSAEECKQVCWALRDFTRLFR

Compound	tested on	test	system	setting	how to read	quantity	result
CN(C)CCNC(=O)c1ccc2c(c1)C1(CCN(CC3CC3)C1)CN2Cc1ccccc1 (centres unmarked)	Vero-E6	CellTiter-Glo ATP	–	72 h, retest 8-point duplicates	relative to: DMSO 0%, hyamine -100%, more negative, more toxic	maximum response	-7.36%
C[C@@H](O)[C@@H](CO)NC(=O)[C@@H](CCCNC(=N)N)NC(=O)[C@@H]1CCCN1C(=O)[C@@H]1CSSC[C@H](NC(=O)[C@H](Cc2ccccc2)NC(=O)CN2CCN(CC(=O)O)CCN(CC(=O)O)CCN(CC(=O)O)CC2)C(=O)N[C@@H](Cc2ccc(O)cc2)C(=O)N[C@@H](Cc2ccccc2)C(=O)N[C@@H](CCC(N)=O)C(=O)N[C@@H](CC(N)=O)C(=O)N1 [gallium-68 labelled]	–	–	healthy Wistar rat, large intestine	intravenous, 8 MBq, 120 min	–	tissue uptake	0.02 %ID/g
O=C(Oc1ccc(Cl)cc1)[c-]1cccc1.[Fe+2].c1cc[cH-]c1	–	cyclic voltammetry	methanol/DMEM 1:1 with TBAPF6	Pt disk electrode, Ag/AgCl reference, together with: scan rate 100 mV/s	–	oxidation potential	570 mV
O=S(=O)(Nc1ccccc1)c1ccc(NC(=S)Nc2ccccc2)cc1	–	–	male mouse, blood	oral, 20 mg/kg daily, 14 days	–	haemoglobin	14.6 g/dL
COc1ccccc1C(=O)NC1CCCN(Cc2cccc(-c3ccc(C)c(Cl)c3)c2)C1 (centres unmarked)	Vero-E6	CellTiter-Glo ATP	–	72 h, retest 8-point duplicates	relative to: DMSO 0%, hyamine -100%, more negative, more toxic	maximum response	-12.2%
CC(C)=CC1C(C(=O)OC(C#N)c2cccc(Oc3ccccc3)c2)C1(C)C (centres unmarked)	–	refers to: CYP3A4	human, age 6 months	–	–	enzyme contribution to clearance	0.62%
O=C(c1ccc(Cl)cc1)N1CCN2C(=O)N(OC(=O)N3CCOc4ccccc43)C(=O)C2C1 (centres unmarked)	Kynurenine formamidase (AFMID, Homo sapiens, UniProt Q63HM1)	MS-based ABPP	SW-620 conditioned medium	10 µM, 1 h, 37 °C	relative to: compound over DMSO, lower = more inhibition	peptide ratio	1.27
CC[C@H](C)[C@H](NC(=O)[C@H](Cc1ccccc1)NC(=O)[C@H](CCC(=O)O)NC(=O)[C@H](CCCNC(=N)N)NC(=O)[C@H](C)NC(=O)[C@H](C)NC(=O)[C@H](CCC(N)=O)NC(=O)[C@H](CCC(=O)O)NC(=O)[C@H](CCC(=O)O)NC(=O)[C@H](CC(C)C)NC(=O)[C@H](Cc1ccc(O)cc1)NC(=O)[C@H](CO)NC(=O)[C@H](CO)NC(=O)[C@@H](NC(=O)[C@H](CC(=O)O)NC(=O)[C@H](CO)NC(=O)[C@@H](NC(=O)[C@H](Cc1ccccc1)NC(=O)[C@@H](NC(=O)CNC(=O)[C@H](CCC(=O)O)NC(=O)[C@H](C)NC(=O)CCc1c[nH]cn1)[C@@H](C)O)[C@@H](C)O)C(C)C)C(=O)N[C@@H](C)C(=O)N[C@@H](Cc1c[nH]c2ccccc12)C(=O)N[C@@H](CC(C)C)C(=O)N[C@H](C(=O)N[C@@H](CCCNC(=N)N)C(=O)NCC(=O)N[C@@H](CCCNC(=N)N)C(=O)N[C@@H](CCCCNC(=O)COCCOCCNC(=O)COCCOCCNC(=O)CC[C@H](NC(=O)CCCCCCCCCCCCCCCCC(=O)O)C(=O)O)C(=O)NCC(=O)NCC(=O)N[C@@H](CO)C(=O)N[C@@H](CCCCNc1c(NCCCCCN(O)C(=O)CCC(=O)NCCCCCN(O)C(=O)CCC(=O)NCCCCCN(O)C(C)=O)c(=O)c1=O)C(=O)O)C(C)C [zirconium-89 labelled]	–	ex vivo gamma counting	rat, colon content	subcutaneous, 3 nmol/kg, 24 h, together with: [89Zr]-labelled peptide	–	tissue uptake	0.24 %ID/g
O=C(O)C(O)(c1cccs1)c1cccs1	–	–	human, plasma	oral, 10 mg once daily, 5 days, median	relative to: metabolite over parent	metabolite over parent AUC(0-24) ratio	0.18
COc1ccc(C[C@@H]2NC(=O)[C@H]([C@@H](C)O)NC(=O)[C@@H]3[C@@H]4CCN3C(=O)[C@@H]3Cc5cn(c6ccc(F)cc56)CCCCCCN(Cc5ccc(cc5)CCNC(=O)[C@]5(C)CCCN5C2=O)C(=O)CCC(=O)N[C@@H](C)C(=O)N[C@H](CNC(=O)CCCCC[N+](C)(C)C)C(=O)N[C@@H](Cc2cccc(c2)CNC(=O)CO4)C(=O)N3)cc1	–	refers to: bone contusion	human	Study-003 safety	–	adverse events	3.2%
C[C@@H]1NC(=O)[C@H](CCCCNC(=O)CO/N=C/C(=O)NCCCC[C@@H]2NC(=O)[C@@H](Cc3ccccc3)NC(=O)[C@H](CC(=O)O)NC(=O)CNC(=O)[C@H](CCCNC(=N)N)NC2=O)NC(=O)CNC(=O)[C@@H]2CCCN2C(=O)[C@H](CCCCNC(=O)CO/N=C/C(=O)NCCCC[C@@H]2NC(=O)[C@@H](Cc3ccccc3)NC(=O)[C@H](CC(=O)O)NC(=O)CNC(=O)[C@H](CCCNC(=N)N)NC2=O)NC(=O)[C@H](CCCCNC(=O)CN2CCCNCCNCCCNCC2)NC(=O)[C@H](CCCCNC(=O)CO/N=C/C(=O)NCCCC[C@@H]2NC(=O)[C@@H](Cc3ccccc3)NC(=O)[C@H](CC(=O)O)NC(=O)CNC(=O)[C@H](CCCNC(=N)N)NC2=O)NC(=O)CNC(=O)[C@@H]2CCCN2C(=O)[C@H](CCCCNC(=O)CO/N=C/C(=O)NCCCC[C@@H]2NC(=O)[C@@H](Cc3ccccc3)NC(=O)[C@H](CC(=O)O)NC(=O)CNC(=O)[C@H](CCCNC(=N)N)NC2=O)NC1=O [copper-64 labelled]	–	–	normal mice, kidney	intravenous, 0.74 MBq, 24 h post-injection	–	tissue uptake	14.6 ± 0.97 %ID/g
COc1cc2c(Oc3ccc4[nH]c(C)cc4c3F)ccnc2cc1OCC1(N)CC1	–	–	paediatric recurrent refractory sarcoma	concentration not given, whole group	–	grade 1 or 2 AST elevation	26.5%
C[C@]1(CO)Cc2ncn(-c3ccc(C#N)c(Cl)c3)c2C(=O)O1	–	–	human, plasma	80 mg once daily, fasted	–	tmax at steady state	1 h
CCc1ccc(CC/C=C/c2ccc3c(c2)C(=O)CC3)cc1	–	–	Sprague-Dawley rat, male	oral, 450 mg/kg/day, 14 days	–	Hemoglobin	140 g/L
C[C@@H]1OC(=O)NN=C1c1ccc(-c2ccc(F)cc2)c(C(F)(F)F)c1	–	phase I trial, refers to: Diarrhoea worst grade 1	human patients	5 mg once daily	–	patients with adverse event	0%
CC(=O)c1c([O-])cc(C)oc1=O.[Na+]	–	–	Wistar rat, female, serum	oral, 200 mg/kg, no CYP inhibitor	–	AUC(0-inf)	4100 ± 244 µg·h/mL
COc1ccc2nc3cc(Cl)ccc3c(Nc3cc(CN4CCCC4)c(O)c(CN4CCCC4)c3)c2n1	–	–	mouse, blood	intraperitoneal, 57 mg/kg	–	eosinophils	13.1%
Clc1ccc(-c2ccccc2)cc1	–	–	female Sprague-Dawley rats, serum	inhalation, 23 µg/rat, 4 h after exposure	–	sodium	127 ± 12 mmol/L

Compound	tested on	test	system	setting	how to read	quantity	result
C[C@H]1CN(c2n[nH]c3nc(N[C@H]4CC[C@H](NS(=O)(=O)CCC(F)(F)F)CC4)ncc23)CCO1	Transportin-3 (Homo sapiens, UniProt Q9Y5L0)	Kinobeads competition, refers to: TNPO3	–	0.032 µM, unit not given	relative to: vehicle	remaining binding	1.16
COc1ccc(N=Nc2ccc3[nH]cc(CCN(C)C)c3c2)cc1	–	light irradiation	solution	together with: light 530 nm	–	trans isomer at photostationary state	91%
O=C(c1ccc(F)c(F)c1Nc1ccc(I)cc1F)N1CC(O)([C@@H]2CCCCN2)C1	–	–	human patients	oral, dose not given, dose escalation, suspension	–	adverse events of special interest	50%
COc1cc(Nc2ncc(F)c(Nc3ccc4c(n3)NC(=O)C(C)(C)O4)n2)cc(OC)c1OC	α-D-Glucosidase	–	–	–	–	IC50	> 10 µM
CN1CC[C@@H](c2c(O)cc(O)c3c(=O)cc(-c4ccc(C(F)(F)F)cc4Cl)oc23)[C@@H]1CO	–	refers to: Hypertension	B-cell malignancies or AML	oral, 100 mg, continuous dosing	–	patients with adverse event	12.5%
CO[C@H]1C[C@@H]2CC[C@@H](C)[C@@](O)(O2)C(=O)C(=O)N2CCCC[C@H]2C(=O)O[C@H]([C@H](C)C[C@@H]2CC[C@@H](OC(=O)NCCOCCOCCOCCOCCOCCOCCOCCOCCC(=O)N3CCc4cc(Cn5nc(-c6ccc7oc(N)nc7c6)c6c(N)ncnc65)ccc4C3)[C@H](OC)C2)C[C@@H](O)[C@H](C)/C=C(\C)[C@@H](O)[C@@H](OC)C(=O)[C@H](C)C[C@H](C)/C=C/C=C/C=C/1C	–	phase 1 dose escalation, refers to: nausea	advanced solid tumour patients	intravenous, 16 mg weekly, grade ≥3	–	TRAE incidence	0%
CC(C)(O)c1cc(Nc2cc(Oc3cn(C4CC4)nc3C3CCOCC3)ccn2)ccn1	–	Anemia	patients with advanced cancer, grade 4 glioma expansion	oral, 50 mg twice daily, grade ≥3, 2 weeks on/2 weeks off schedule	–	treatment-related adverse events	0%
COc1ncccc1-c1cnn2ccc(N3CCN(C(=O)OC(C)C)CC3)nc12	–	–	rat, CCI cold allodynia model, brain	oral, 1 mg/kg, 240 min	–	drug concentration	430 nM
COc1cccc(Oc2ccccc2NC(=O)CNC(=O)c2cccc3ccccc23)c1	–	–	esterase-deficient SCID mice, male	oral, 40 mg/kg/day, 14 days, toxicity study	–	serum calcium	10.3 mg/dL and 9.8 mg/dL and 8.7 mg/dL
COC[C@@H](CC(C)C)NC(=O)c1ccc(C)c(C)c1	–	–	Hsd:ICR (CD-1) mouse, female, bone marrow	oral, 2000 mg/kg, 48 h	–	micronucleated PCE per 1000 PCE	0.2
N[C@@H]1c2ccccc2OC12CCN(c1cnc3c(N4CCCc5ncccc54)n[nH]c3n1)CC2	–	–	patients advanced metastatic solid tumours	oral, dose not given, dose escalation total	–	incidence of any TEAE	100%
CC[C@H](C)[C@@H]1NC(=O)[C@@H]2CCCN2C(=O)[C@H](CC(C)C)NC(=O)[C@H](CC(C)C)NC(=O)CNC(=O)[C@@H](NC(=O)[C@@H](NC(=O)[C@H](CC(=O)O)NC(=O)CNC(=O)[C@@H](NC(=O)[C@H](C)NC(=O)CNC(=O)[C@H](CCCCN)NC(=O)[C@H](CC(C)C)NC(=O)[C@H](CC(C)C)NC(=O)[C@H](CCCCN)NC(=O)CNC(=O)[C@@H](NC(=O)[C@@H](N)CC(C)C)C(C)C)C(C)C)C(C)C)CSSC[C@@H](C(=O)O)NC1=O	–	RNA-seq, refers to: Pi15	mouse, traumatic brain injury model, frontal cortex and hippocampus	dose not given	relative to: TBI alone	log2 fold change	-2.77
CCN1[C@@H](C(=O)NC23CCC(C(=O)O)(CC2)CC3)[C@H](c2cccc(Cl)c2F)[C@]2(C(=O)Nc3cc(Cl)ccc32)C12CCCCC2	–	–	patients with advanced solid tumours	oral, dose not given, all doses	–	any-grade anemia incidence	52.4%
C/C(=N\C#N)N(C)Cc1ccc(Cl)nc1	–	–	soil	56 days, nominal 0.37	–	recovery	3.5%
CC(=O)c1c(C)c2cnc(Nc3ccc(C4CCN(CCS(C)(=O)=O)CC4)cn3)nc2n(C2CCCC2)c1=O	–	–	human, plasma	oral, 150 mg, day 1 single dose	–	MRT	11.1 h
CC(C)C[C@H](NC(=O)[C@H](CCCCN)NC(=O)OCC1c2ccccc2-c2ccccc21)C(=O)N[C@H](C(=O)N[C@@H](Cc1ccccc1)C(=O)N[C@@H](Cc1ccccc1)C(=O)N[C@@H](CCCCN)C(=O)NCC(=O)N[C@@H](Cc1ccccc1)C(=O)N[C@@H](C)C(=O)N[C@@H](Cc1c[nH]c2ccccc12)C(=O)N[C@@H](CC(N)=O)C(=O)N[C@H](C(=O)N[C@H]1CSSC[C@@H](C(=O)N[C@@H](Cc2c[nH]cn2)C(=O)N[C@@H](CCCNC(=N)N)C(=O)N[C@@H](CCCNC(=N)N)C(=O)N[C@@H](C)C(=O)N[C@@H](CC(N)=O)C(N)=O)NC(=O)[C@H](C(C)C)NC(=O)[C@H](CCCNC(=N)N)NC(=O)[C@H](C(C)C)NC(=O)CNC(=O)[C@H](CC(N)=O)NC(=O)[C@H](CCCNC(=N)N)NC(=O)[C@H](Cc2ccc(O)cc2)NC(=O)[C@H](C(C)C)NC1=O)C(C)C)C(C)C	–	–	ICR mice, blood	intraperitoneal, 5 mg/kg, day 5	–	mean platelet volume	6.75 ± 0.24 fL
[O-][S+]1CCc2nc(N3CCC(c4ncc(Cl)cn4)CC3)nc(NC3(CO)CCC3)c21 (centres unmarked)	–	refers to: mean	idiopathic pulmonary fibrosis patients, blood	18 mg twice daily, at last treatment	–	haemoglobin	13.2 g/dL

For quick reference, copied from above:
Compound	tested on	test	system	setting	how to read	quantity	result
COc1ccc2nc3cc(Cl)ccc3c(Nc3cc(CN4CCCC4)c(O)c(CN4CCCC4)c3)c2n1	–	–	mouse, blood	intraperitoneal, 57 mg/kg	–	eosinophils	13.1%
Clc1ccc(-c2ccccc2)cc1	–	–	female Sprague-Dawley rats, serum	inhalation, 23 µg/rat, 4 h after exposure	–	sodium	127 ± 12 mmol/L
C[C@H]1CN(c2n[nH]c3nc(N[C@H]4CC[C@H](NS(=O)(=O)CCC(F)(F)F)CC4)ncc23)CCO1	Transportin-3 (Homo sapiens, UniProt Q9Y5L0)	Kinobeads competition, refers to: TNPO3	–	0.032 µM, unit not given	relative to: vehicle	remaining binding	1.16
COc1ccc(N=Nc2ccc3[nH]cc(CCN(C)C)c3c2)cc1	–	light irradiation	solution	together with: light 530 nm	–	trans isomer at photostationary state	91%
O=C(c1ccc(F)c(F)c1Nc1ccc(I)cc1F)N1CC(O)([C@@H]2CCCCN2)C1	–	–	human patients	oral, dose not given, dose escalation, suspension	–	adverse events of special interest	50%
COc1cc(Nc2ncc(F)c(Nc3ccc4c(n3)NC(=O)C(C)(C)O4)n2)cc(OC)c1OC	α-D-Glucosidase	–	–	–	–	IC50	> 10 µM
